Assay results gathered from unrelated publications.
Lines come from different studies, so protocols differ. Several values in a cell are separate wells, animals, samples, runs or records.

COc1ccnc(C(=O)N[C@H]2COC(=O)[C@H](Cc3ccccc3)[C@@H](OC(=O)C(C)C)[C@H](C)OC2=O)c1OCOC(=O)C(C)C — residue storage stability (germ; -18 °C): 6 months
CC1(C)[C@H](C=C(Cl)Cl)[C@H]1C(=O)OCc1cccc(Oc2ccccc2)c1 — enzyme contribution to clearance (measured: CYP1A2; human, age 5 years, recombinant human CYP1A2; 0.1 µM): 0.07%
O=C(c1ccc(F)c(F)c1Nc1ccc(I)cc1F)N1CC(O)([C@@H]2CCCCN2)C1 — fatal adverse events (human patients; oral, 1 mg/kg, age ≥18 years): 0%
CO[C@H]1C[C@@H]2CC[C@@H](C)[C@@](O)(O2)C(=O)C(=O)N2CCCC[C@H]2C(=O)O[C@H]([C@H](C)C[C@@H]2CC[C@@H](OC(=O)NCCOCCOCCOCCOCCOCCOCCOCCOCCC(=O)N3CCc4cc(Cn5nc(-c6ccc7oc(N)nc7c6)c6c(N)ncnc65)ccc4C3)[C@H](OC)C2)C[C@@H](O)[C@H](C)/C=C(\C)[C@@H](O)[C@@H](OC)C(=O)[C@H](C)C[C@H](C)/C=C/C=C/C=C/1C — incidence of Mucositis TRAE (patients with advanced solid tumours; intravenous, 1.6 mg/3 mg weekly, any grade): 20%
CN1CCN(c2cccc3c2CCN(C(=O)/C=C/c2c(-n4cnnn4)ccc(Cl)c2F)[C@@H]3C(=O)Nc2ccc(C(=O)O)cc2)C(=O)C1 — deaths (healthy human subjects; intravenous infusion, 10 mg/h, 2 h): 0%
CC(=O)c1c(C)c2cnc(Nc3ccc(C4CCN(CCS(C)(=O)=O)CC4)cn3)nc2n(C2CCCC2)c1=O — Cmax (human, dose-escalation trial, plasma; oral, 100 mg twice daily, day 21, multiple doses): 432 ng/mL
COc1ncccc1-c1cnn2ccc(N3CCN(C(=O)OC(C)C)CC3)nc12 — free drug concentration (rat, thermal hyperalgesia model, plasma; oral, 0.1 mg/kg, 180 min): 0.2 nM
NCCCC[C@@H]1NC(=O)[C@@H](Cc2c[nH]c3ccccc23)NC(=O)[C@H](c2ccccc2)NC(=O)[C@@H]2C[C@@H](OC(=O)NCCN)CN2C(=O)[C@H](Cc2ccccc2)NC(=O)[C@H](Cc2ccc(OCc3ccccc3)cc2)NC1=O — placebo-corrected QTcF change (healthy volunteers, female; 1950 µg twice daily, 2.0 h, post hoc): 10.9 ms
COc1ccc2nc3cc(Cl)ccc3c(Nc3cc(CN4CCCC4)c(O)c(CN4CCCC4)c3)c2n1 — mean corpuscular haemoglobin concentration (mouse, blood; intraperitoneal, 28 mg/kg): 377 g/L
C=CC(=O)Nc1cc(Nc2nccc(Nc3cc(Cl)c(F)cc3C(C)(C)O)n2)c(OC)cc1N1CC[C@@H](N(C)C)C1 — patients with anaemia (human patients; oral, 100 mg, treatment-emergent adverse events): 33.3%
CC(C)[C@H](N)C(=O)NCCCS(=O)(=O)O — terminal half-life (human, plasma; oral, 265 mg twice daily, week 65, steady state, 8 h sampling): 1.2 h
CCN1[C@@H](C(=O)NC23CCC(C(=O)O)(CC2)CC3)[C@H](c2cccc(Cl)c2F)[C@]2(C(=O)Nc3cc(Cl)ccc32)C12CCCCC2 — AST elevation incidence (patients with advanced solid tumours; oral, 100 mg): 0%
COc1cccc(Oc2ccccc2NC(=O)CNC(=O)c2cccc3ccccc23)c1 — hematocrit (esterase-deficient SCID mice, male, blood; oral, 100 mg/kg/day, 14 days, toxicity study): 48.7% and 46.1% and 44.9%

For quick reference, copied from above:
COc1ccnc(C(=O)N[C@H]2COC(=O)[C@H](Cc3ccccc3)[C@@H](OC(=O)C(C)C)[C@H](C)OC2=O)c1OCOC(=O)C(C)C — residue storage stability (germ; -18 °C): 6 months
